Results of several laboratories.
Lines come from different studies, so protocols differ. Several values in a cell are separate wells, animals, samples, runs or records.
Organism: Escherichia coli

SMILES | test | system | conditions | how to read | quantity | value
Nc1cc(S(=O)(=O)O)cc2cc(S(=O)(=O)O)cc(O)c12 | bacterial growth, broth microdilution | expressing OXA-48 | 32 µg/mL, together with: ampicillin | MIC of ampicillin | MIC of ampicillin | 512 µg/mL
CC(C)Oc1c(NC(=O)c2ccc(NC(=O)[C@H](CC(N)=O)NC(=O)c3cc(F)c(/N=N/c4c(Cl)cc(C#N)cc4Cl)c(F)c3)cc2)ccc(C(=O)N/N=C/c2c(F)cc(C(=O)O)cc2F)c1O |  | BW25113 | dark-adapted ground state |  | MIC | > 6.4 µg/mL
O=S(=O)(O)c1ccc(-c2ccc(S(=O)(=O)O)cc2)cc1 | bacterial growth, broth microdilution | expressing OXA-48 | 64 µg/mL, together with: ampicillin | MIC of ampicillin | MIC of ampicillin | 128 µg/mL
NC[C@@H](NC[C@@H]1CCCN1C[C@@H](CO)NC[C@@H](NCCC1CC2CCC1C2)c1ccccc1)c1ccccc1 (stereo partly drawn) | bacterial growth |  | 16 µM, fold shift of IC50, together with: amikacin |  | potentiation of amikacin | 3.3 fold
C[C@H](CS)C(=O)N[C@@H](Cc1c[nH]c2ccccc12)C(=O)O |  | VIM-1 producing | 10 µM, together with: meropenem |  | MIC of meropenem | 16 mg/L
NC[C@@H](NC[C@@H]1CCCN1C[C@@H](CO)NC[C@@H](NCCc1ccc(-c2ccccc2)cc1)c1ccccc1)c1ccccc1 | bacterial growth |  | compound alone |  | IC50 | 16 µM and 16.2 µM
O=S(=O)(O)c1ccc2cc(S(=O)(=O)O)ccc2c1 | bacterial growth, broth microdilution | expressing OXA-48 | 16 µg/mL, together with: ampicillin | MIC of ampicillin | MIC of ampicillin | 256 µg/mL
NC[C@H]1OB(O)c2ccccc21 | broth microdilution | ATCC 25922 wild type, M9 medium |  |  | MIC | 3.1 µM
NC[C@@H](NC[C@@H]1CCCN1C[C@@H](CO)NC[C@@H](NCCc1ccc(Cl)c(Cl)c1)c1ccccc1)c1ccccc1 | bacterial growth |  | compound alone |  | IC50 | 11.7 µM

A few entries again:
SMILES | test | system | conditions | how to read | quantity | value
NC[C@@H](NC[C@@H]1CCCN1C[C@@H](CO)NC[C@@H](NCCc1ccc(-c2ccccc2)cc1)c1ccccc1)c1ccccc1 | bacterial growth |  | compound alone |  | IC50 | 16 µM and 16.2 µM
